Measured values pooled from the literature.
Parts stem from different laboratories: compare values within a part only. Several values in a cell are separate wells, animals, samples, runs or records.
Chain of UniProt P42336 (whole entry, unmodified, looked up): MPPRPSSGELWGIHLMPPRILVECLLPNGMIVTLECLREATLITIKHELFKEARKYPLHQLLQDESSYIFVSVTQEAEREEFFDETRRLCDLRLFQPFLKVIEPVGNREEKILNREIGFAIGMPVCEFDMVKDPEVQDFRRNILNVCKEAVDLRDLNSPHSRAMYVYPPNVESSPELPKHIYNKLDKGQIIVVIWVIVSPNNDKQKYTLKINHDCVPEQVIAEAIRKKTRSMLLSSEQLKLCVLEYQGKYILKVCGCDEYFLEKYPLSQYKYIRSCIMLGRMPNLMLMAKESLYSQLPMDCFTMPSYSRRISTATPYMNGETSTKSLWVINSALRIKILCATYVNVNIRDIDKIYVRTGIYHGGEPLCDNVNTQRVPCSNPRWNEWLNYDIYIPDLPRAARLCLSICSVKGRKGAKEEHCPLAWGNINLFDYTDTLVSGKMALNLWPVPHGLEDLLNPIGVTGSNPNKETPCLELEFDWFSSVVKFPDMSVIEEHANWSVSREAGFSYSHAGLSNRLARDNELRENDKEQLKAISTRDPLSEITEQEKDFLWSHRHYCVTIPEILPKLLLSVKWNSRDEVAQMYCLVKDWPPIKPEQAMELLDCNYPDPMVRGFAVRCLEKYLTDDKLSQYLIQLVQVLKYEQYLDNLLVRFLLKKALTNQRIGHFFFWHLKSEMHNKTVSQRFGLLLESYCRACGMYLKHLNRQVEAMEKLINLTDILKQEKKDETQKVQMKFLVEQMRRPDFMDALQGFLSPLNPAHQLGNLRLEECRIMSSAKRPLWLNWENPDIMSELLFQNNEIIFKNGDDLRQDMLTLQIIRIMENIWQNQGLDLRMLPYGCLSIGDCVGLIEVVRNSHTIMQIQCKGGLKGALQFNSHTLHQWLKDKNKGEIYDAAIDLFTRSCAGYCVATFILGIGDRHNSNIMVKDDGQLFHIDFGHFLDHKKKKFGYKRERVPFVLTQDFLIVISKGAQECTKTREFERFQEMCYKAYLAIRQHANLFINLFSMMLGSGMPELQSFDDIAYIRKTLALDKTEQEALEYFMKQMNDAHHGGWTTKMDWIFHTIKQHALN
Chain of UniProt Q9UEE5 (whole entry, looked up): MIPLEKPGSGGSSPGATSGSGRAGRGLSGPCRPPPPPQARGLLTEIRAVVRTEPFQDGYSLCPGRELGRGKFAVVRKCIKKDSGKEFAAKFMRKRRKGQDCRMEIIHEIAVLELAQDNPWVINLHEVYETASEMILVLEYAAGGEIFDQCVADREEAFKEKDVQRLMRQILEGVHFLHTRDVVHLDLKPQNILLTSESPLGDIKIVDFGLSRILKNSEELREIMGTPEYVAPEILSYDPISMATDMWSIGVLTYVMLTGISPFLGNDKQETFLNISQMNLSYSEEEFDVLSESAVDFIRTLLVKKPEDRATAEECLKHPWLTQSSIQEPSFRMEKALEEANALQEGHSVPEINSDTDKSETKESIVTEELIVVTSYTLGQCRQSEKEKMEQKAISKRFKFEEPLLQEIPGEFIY
Chain of UniProt Q6DT37 (whole entry, looked up): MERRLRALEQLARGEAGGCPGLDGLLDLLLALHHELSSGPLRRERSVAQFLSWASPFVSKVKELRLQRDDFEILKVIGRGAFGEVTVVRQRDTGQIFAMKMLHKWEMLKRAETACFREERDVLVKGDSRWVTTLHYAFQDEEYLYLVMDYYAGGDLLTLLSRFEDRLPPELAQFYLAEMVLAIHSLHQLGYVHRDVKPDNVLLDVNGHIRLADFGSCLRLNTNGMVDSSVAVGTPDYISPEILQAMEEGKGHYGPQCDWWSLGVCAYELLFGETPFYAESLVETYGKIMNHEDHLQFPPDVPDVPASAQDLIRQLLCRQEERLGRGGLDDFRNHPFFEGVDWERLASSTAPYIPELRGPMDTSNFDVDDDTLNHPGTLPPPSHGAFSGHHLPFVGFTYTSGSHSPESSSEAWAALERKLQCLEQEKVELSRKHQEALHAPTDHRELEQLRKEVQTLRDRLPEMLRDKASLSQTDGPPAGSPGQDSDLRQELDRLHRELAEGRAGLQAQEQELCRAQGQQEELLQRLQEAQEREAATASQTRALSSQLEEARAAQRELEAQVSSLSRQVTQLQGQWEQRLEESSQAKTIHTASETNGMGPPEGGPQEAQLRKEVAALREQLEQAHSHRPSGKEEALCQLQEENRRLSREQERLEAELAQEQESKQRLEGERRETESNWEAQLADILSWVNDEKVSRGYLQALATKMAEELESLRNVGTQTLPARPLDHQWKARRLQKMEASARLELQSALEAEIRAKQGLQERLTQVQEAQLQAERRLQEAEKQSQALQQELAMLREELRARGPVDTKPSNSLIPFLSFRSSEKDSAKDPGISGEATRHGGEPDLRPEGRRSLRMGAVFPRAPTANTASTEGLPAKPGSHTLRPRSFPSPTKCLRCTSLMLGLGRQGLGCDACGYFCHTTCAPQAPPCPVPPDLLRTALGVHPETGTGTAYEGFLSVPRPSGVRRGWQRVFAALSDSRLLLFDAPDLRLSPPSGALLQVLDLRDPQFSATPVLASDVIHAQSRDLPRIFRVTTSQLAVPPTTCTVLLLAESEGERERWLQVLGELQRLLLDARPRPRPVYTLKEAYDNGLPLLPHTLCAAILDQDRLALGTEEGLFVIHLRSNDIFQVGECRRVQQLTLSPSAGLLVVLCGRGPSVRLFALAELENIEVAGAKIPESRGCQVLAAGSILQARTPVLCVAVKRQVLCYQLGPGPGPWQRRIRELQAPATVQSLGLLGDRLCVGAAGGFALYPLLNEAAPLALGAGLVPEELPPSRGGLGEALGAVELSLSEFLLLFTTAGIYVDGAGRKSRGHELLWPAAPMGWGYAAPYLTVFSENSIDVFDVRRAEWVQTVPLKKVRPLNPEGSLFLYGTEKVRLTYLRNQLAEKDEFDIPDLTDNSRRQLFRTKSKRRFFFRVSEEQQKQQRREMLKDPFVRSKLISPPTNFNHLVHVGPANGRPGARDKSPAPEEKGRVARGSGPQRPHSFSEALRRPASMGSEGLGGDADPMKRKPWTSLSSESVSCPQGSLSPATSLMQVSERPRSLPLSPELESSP
Chain of UniProt P54764 (whole entry, looked up): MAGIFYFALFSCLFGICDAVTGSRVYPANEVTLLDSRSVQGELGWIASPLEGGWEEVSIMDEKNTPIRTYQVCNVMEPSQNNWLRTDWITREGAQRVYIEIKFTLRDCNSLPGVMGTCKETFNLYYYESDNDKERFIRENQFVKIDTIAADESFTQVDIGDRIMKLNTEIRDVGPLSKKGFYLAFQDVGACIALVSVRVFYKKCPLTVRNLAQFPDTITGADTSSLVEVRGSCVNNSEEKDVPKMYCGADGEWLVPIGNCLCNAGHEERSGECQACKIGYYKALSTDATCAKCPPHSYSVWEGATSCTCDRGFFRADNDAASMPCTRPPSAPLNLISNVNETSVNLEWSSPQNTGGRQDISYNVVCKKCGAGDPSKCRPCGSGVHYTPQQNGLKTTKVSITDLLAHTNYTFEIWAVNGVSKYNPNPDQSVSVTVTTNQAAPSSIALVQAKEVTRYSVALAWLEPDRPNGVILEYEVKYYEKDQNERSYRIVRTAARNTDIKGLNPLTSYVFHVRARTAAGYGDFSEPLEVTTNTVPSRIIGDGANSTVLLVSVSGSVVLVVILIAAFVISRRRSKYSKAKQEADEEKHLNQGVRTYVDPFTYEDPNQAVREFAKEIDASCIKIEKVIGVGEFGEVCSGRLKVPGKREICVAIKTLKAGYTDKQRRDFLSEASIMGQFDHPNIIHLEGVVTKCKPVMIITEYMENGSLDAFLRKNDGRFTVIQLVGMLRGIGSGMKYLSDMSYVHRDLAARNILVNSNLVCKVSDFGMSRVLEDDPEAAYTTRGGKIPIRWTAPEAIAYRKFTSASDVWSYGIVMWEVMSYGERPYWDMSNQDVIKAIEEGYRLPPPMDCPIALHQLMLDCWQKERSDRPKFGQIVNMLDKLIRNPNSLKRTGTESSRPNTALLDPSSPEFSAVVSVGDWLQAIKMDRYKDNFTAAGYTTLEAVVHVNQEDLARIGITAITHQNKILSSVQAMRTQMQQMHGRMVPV

Block 1 — cell line: HaCaT; concentration: 100 µM; time: 18 h
| Structure (SMILES) | viability [%] |
| --- | --- |
| OCCOc1ccc(/C(=C(/CCCl)c2ccccc2)c2ccccc2)cc1 | 19.3 |
| Cc1ccc([C@@H]2O[C@H](CO)[C@@H](O)[C@H](O)[C@H]2O)cc1Cc1ccc(-c2ccc(F)cc2)s1 | 16.8 |
| C=CC(=O)Nc1cc(Nc2nccc(-c3cn(C)c4ccccc34)n2)c(OC)cc1N(C)CCN(C)C | 16.4 |
| C[C@H](Cn1cnc2c(N)ncnc21)OCP(=O)(O)O | 93.7 |
| COC1C(OC(N)=O)C(O)C(Oc2ccc3c(O)c(NC(=O)c4ccc(O)c(CC=C(C)C)c4)c(=O)oc3c2C)OC1(C)C (centres unmarked) | 99.2 |
| Cc1c(CNCS(=O)(=O)O)c(=O)n(-c2ccccc2)n1C | 122 |
| CN1C(C(=O)Nc2ccccn2)=C(O)c2sccc2S1(=O)=O | 74 |
| COc1cc2c(cc1OC)[C@H]1CC(=O)[C@H](CC(C)C)CN1CC2 (racemic) | 107 |
| CO[C@H]1C[C@H](O[C@H]2[C@H](C)O[C@@H](O[C@@H]3/C(C)=C/C[C@@H]4C[C@@H](C[C@]5(C=C[C@H](C)[C@@H](C6CCCCC6)O5)O4)OC(=O)[C@@H]4C=C(C)[C@@H](O)[C@H]5OC/C(=C\C=C\[C@@H]3C)[C@]54O)C[C@@H]2OC)O[C@@H](C)[C@@H]1O | 18.6 |
| O=c1[nH]c(=O)n([C@H]2C[C@H](O)[C@@H](CO)O2)cc1C(F)(F)F | 90.5 |
| CC1(C)S[C@@H]2[C@H](NC(=O)[C@H](N)c3ccc(O)cc3)C(=O)N2[C@H]1C(=O)O | 110 |
| OCc1ccccc1O[C@@H]1O[C@H](CO)[C@@H](O)[C@H](O)[C@H]1O | 108 |
| CCC(C)(C)c1ccc(CC(C)CN2C[C@@H](C)O[C@@H](C)C2)cc1 (some centres unmarked) | 20 |
| CO/N=C1\CN(c2nc3c(cc2F)c(=O)c(C(=O)O)cn3C2CC2)CC1CN (centres unmarked) | 94 |
| CC(C(=O)O)c1ccc(-c2ccccc2)c(F)c1 (centres unmarked) | 112 |
| CS(=O)(=O)n1cc2c(n1)CN([C@H]1CO[C@H](c3cc(F)ccc3F)[C@@H](N)C1)C2 | 95.2 |
| CC1CCc2c(N3CCC(O)CC3)c(F)cc3c(=O)c(C(=O)O)cn1c23 (centres unmarked) | 115 |
| Nc1nc(=O)n([C@@H]2CS[C@H](CO)O2)cc1F | 99.6 |
| CO[C@H]1C(=O)[C@]2(C)[C@@H](OC)C[C@H]3OC[C@@]3(OC(C)=O)[C@H]2[C@H](OC(=O)c2ccccc2)[C@]2(O)C[C@H](OC(=O)[C@H](O)[C@@H](NC(=O)OC(C)(C)C)c3ccccc3)C(C)=C1C2(C)C | 71.9 |
| CCOc1ccc(Cc2cc([C@@H]3O[C@H](CO)[C@@H](O)[C@H](O)[C@H]3O)ccc2Cl)cc1 | 87.6 |

Block 2 — read-out: binding; mode: competitor; method: NanoBRET; cell line: HEK293
SMILES: CCC(=O)N1CCN(c2nc(OC[C@@H]3CCCN3C)nc3c2CCN(c2cccc4cccc(Cl)c24)C3)C[C@@H]1CC#N
KRAS G13D: GTPase KRas (KRAS, Homo sapiens, UniProt P01116, G13D)
KRAS Q61R: GTPase KRas (KRAS, Homo sapiens, UniProt P01116, Q61R)
| target | concentration | normalized BRET |
| --- | --- | --- |
| KRAS G13D | 137 nM | 92.6% and 80.9% and 83.7% |
| KRAS G13D | 412 nM | 81.3% and 69.5% and 69.4% |
| KRAS G13D | 45.7 nM | 85.9% and 101% and 90.2% |
| KRAS G13D | 5.08 nM | 97.2% and 102% and 94.7% |
| KRAS Q61R | 15.2 nM | 109% and 101% and 105% |
| GTPase KRas (KRAS, Homo sapiens, UniProt P01116, G12D) | 137 nM | 97.4% and 99.5% and 96.8% |
| KRAS G13D | 1.69 nM | 106% and 98.7% and 92% |
| KRAS Q61R | 137 nM | 100% and 107% and 103% |

Block 3 — read-out: enzyme activity; mode: inhibitor; concentration: 0.5 µM; reference: control
Target: Maternal embryonic leucine zipper kinase (MELK, Homo sapiens, UniProt Q14680)
Chain of UniProt Q14680 (whole entry, looked up): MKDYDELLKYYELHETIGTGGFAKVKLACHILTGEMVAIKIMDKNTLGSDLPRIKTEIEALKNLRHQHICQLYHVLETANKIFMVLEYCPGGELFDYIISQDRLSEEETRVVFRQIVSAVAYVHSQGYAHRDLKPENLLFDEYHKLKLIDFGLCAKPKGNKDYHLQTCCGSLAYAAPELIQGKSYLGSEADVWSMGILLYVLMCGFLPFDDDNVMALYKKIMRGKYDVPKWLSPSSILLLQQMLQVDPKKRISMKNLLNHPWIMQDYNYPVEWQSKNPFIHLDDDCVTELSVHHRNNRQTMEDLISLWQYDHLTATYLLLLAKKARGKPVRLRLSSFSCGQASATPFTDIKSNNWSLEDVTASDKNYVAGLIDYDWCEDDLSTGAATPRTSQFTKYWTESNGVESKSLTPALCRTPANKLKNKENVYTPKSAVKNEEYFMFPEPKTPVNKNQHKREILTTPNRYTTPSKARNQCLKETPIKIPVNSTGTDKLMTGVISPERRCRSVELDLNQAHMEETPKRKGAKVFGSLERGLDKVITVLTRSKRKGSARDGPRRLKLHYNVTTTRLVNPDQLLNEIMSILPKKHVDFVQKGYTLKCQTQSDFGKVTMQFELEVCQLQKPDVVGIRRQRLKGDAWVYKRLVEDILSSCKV
| Structure (SMILES) | remaining activity |
| --- | --- |
| N#C/C(=C\c1ccc(O)c(O)c1)C(=O)NCc1ccccc1 | 100% |
| c1ccc(-c2[nH]ncc2-c2ccnc3ccccc23)nc1 | 93.3% |
| COc1cc2c(cc1OC)-c1[nH]nc(Nc3cccc(F)c3)c1C2 | 72.1% |
| Cc1cn(-c2cc(NC(=O)c3ccc(C)c(Nc4nccc(-c5cccnc5)n4)c3)cc(C(F)(F)F)c2)cn1 | 90% |
| Cc1cc2ncc(-c3ccccc3)nc2cc1C | 91.1% |
| O=C1c2ccccc2-c2n[nH]c3cccc1c23 | 21.6% |
| O=c1cc(-c2cccc3c2Sc2ccccc2S3)oc(N2CCOCC2)c1 | 99.9% |
| CCOc1nc(NC(=O)Cc2cc(OC)ccc2OC)cc(N)c1C#N | 97.1% |
| Ic1cccc(CSc2nnc(-c3ccncc3)o2)c1 | 97.7% |
| Nc1cccc(-c2cc3c(Oc4cccc(O)c4)ncnc3[nH]2)c1 | 93.4% |
| Cn1nc2c3c(cccc31)C(=O)c1ccccc1-2 | 83.6% |
| CCN(CC)C(=O)c1ccc(Nc2nc(OCC3CCCCC3)c3[nH]cnc3n2)cc1 | 76.3% |
| O=C(NC(NC(=S)Nc1ccc(F)c([N+](=O)[O-])c1)C(Cl)(Cl)Cl)C(c1ccccc1)c1ccccc1 (centres unmarked) | 102% |
| C[C@@H]1CCN(C(=O)CC#N)C[C@@H]1N(C)c1ncnc2[nH]ccc12 | 79.4% |
| COc1cc2ncnc(Nc3ccc(O)c(Br)c3)c2cc1OC | 83.4% |
| O=C(Nc1cccc(Nc2nccc(Nc3cccc(C(F)(F)F)c3)n2)c1)C1CC1 | 101% |
| c1ccc(-c2cnc(Nc3ccc(OCCN4CCCC4)cc3)s2)cc1 | 83.5% |
| COc1cc2ncnc(Nc3cccc(Cl)c3)c2cc1OC | 81.8% |
| Cc1nc2cc3nc(-c4cccs4)cnc3cc2n1C | 95.6% |
| CN(C)C[C@H]1CCn2c(c(C3=C(c4cn(C)c5ccccc45)C(=O)NC3=O)c3ccccc32)C1 | 96.4% |
| CCN(CC)CCNC(=O)c1c(C)[nH]c(/C=C2\C(=O)Nc3ccc(Cl)cc32)c1C | 16.7% |
| N#Cc1c(NC(=O)c2cccc3ccccc23)sc2c1CCCC2 | 83.3% |
| O=C1C(Cl)=C(N2C(=O)CCC2=O)C(=O)c2ccccc21 | 96.4% |
| CCN(CC)CCNC(=O)c1c(C)[nH]c(/C=C2\C(=O)Nc3ccc(F)cc32)c1C | 10.4% |

Block 4 — concentration: 1 µM
SMILES: CC1=C(C#N)C(c2ccc3c(c2)c(NC(=O)c2ccccc2C)nn3C)C(C#N)=C(C)N1
| target | read-out | method | remaining binding |
| --- | --- | --- | --- |
| FGR (Homo sapiens, UniProt P09769) | cell-free assay | competition with immobilised ligand | 92% |
| STK17A (Homo sapiens, UniProt Q9UEE5) | cell-free assay | competition with immobilised ligand | 82% |
| ZAP70 (Homo sapiens, UniProt P43403) | cell-free assay | competition with immobilised ligand | 90% |
| ALK (Homo sapiens, UniProt Q9UM73, L1196M) | cell-free assay | competition with immobilised ligand | 80% |
| LRRK2 (Homo sapiens, UniProt Q5S007) | cell-free assay | competition with immobilised ligand | 88% |
| WNK1 (Homo sapiens, UniProt Q9H4A3) | cell-free assay | competition with immobilised ligand | 82% |
| TRPM6 (Homo sapiens, UniProt Q9BX84) | cell-free assay | competition with immobilised ligand | 91% |
| CDK18 (Homo sapiens, UniProt Q07002) | cell-free assay | competition with immobilised ligand | 100% |
| IKBKB (Homo sapiens, UniProt O14920) | cell-free assay | competition with immobilised ligand | 95% |
| PIK3CA (Homo sapiens, UniProt P42336, M1043I) | cell-free assay | competition with immobilised ligand | 100% |
| TESK1 (Homo sapiens, UniProt Q15569) | cell-free assay | competition with immobilised ligand | 96% |
| EPHA4 (Homo sapiens, UniProt P54764) | cell-free assay | competition with immobilised ligand | 93% |
| FLT3 (Homo sapiens, UniProt P36888, F691L/ITD) | cell-free assay | competition with immobilised ligand | 64% |
| CDC42BPG (Homo sapiens, UniProt Q6DT37) |  | competition binding | 92% |
| RIOK1 (Homo sapiens, UniProt Q9BRS2) | cell-free assay | competition with immobilised ligand | 93% |
| PLK4 (Homo sapiens, UniProt O00444) | cell-free assay | competition with immobilised ligand | 100% |
| MYLK3 (Homo sapiens, UniProt Q32MK0) | cell-free assay | competition with immobilised ligand | 86% |
| DYRK2 (Homo sapiens, UniProt Q92630) | cell-free assay | competition with immobilised ligand | 100% |
| COQ8A (Homo sapiens, UniProt Q8NI60) | cell-free assay | competition with immobilised ligand | 100% |
| PIK3CA (Homo sapiens, UniProt P42336, I800L) | cell-free assay | competition with immobilised ligand | 93% |
| PRKCQ (Homo sapiens, UniProt Q04759) | cell-free assay | competition with immobilised ligand | 55% |
| MAP3K12 (Homo sapiens, UniProt Q12852) | cell-free assay | competition with immobilised ligand | 80% |
| CSNK1G3 (Homo sapiens, UniProt Q9Y6M4) | cell-free assay | competition with immobilised ligand | 100% |
| ULK2 (Homo sapiens, UniProt Q8IYT8) | cell-free assay | competition with immobilised ligand | 72% |
| CAMK2G (Homo sapiens, UniProt Q13555) | cell-free assay | competition with immobilised ligand | 100% |

Some of these lines once more (block 3):
| Structure (SMILES) | remaining activity |
| --- | --- |
| c1ccc(-c2cnc(Nc3ccc(OCCN4CCCC4)cc3)s2)cc1 | 83.5% |
| O=C(NC(NC(=S)Nc1ccc(F)c([N+](=O)[O-])c1)C(Cl)(Cl)Cl)C(c1ccccc1)c1ccccc1 (centres unmarked) | 102% |
| Nc1cccc(-c2cc3c(Oc4cccc(O)c4)ncnc3[nH]2)c1 | 93.4% |
| Ic1cccc(CSc2nnc(-c3ccncc3)o2)c1 | 97.7% |
| N#C/C(=C\c1ccc(O)c(O)c1)C(=O)NCc1ccccc1 | 100% |
| CCN(CC)CCNC(=O)c1c(C)[nH]c(/C=C2\C(=O)Nc3ccc(Cl)cc32)c1C | 16.7% |
